Assay results gathered from unrelated publications.
Each line is one published result; not all experiments were run side by side. Values joined by “and” are separate records of one study, mostly repeats; a detail may differ. ± gives the spread as reported.
TARDBP aggregated: TAR DNA-binding protein 43, aggregated (TARDBP, Homo sapiens, UniProt Q13148)
Sequence of UniProt Q13148 (whole entry, looked up): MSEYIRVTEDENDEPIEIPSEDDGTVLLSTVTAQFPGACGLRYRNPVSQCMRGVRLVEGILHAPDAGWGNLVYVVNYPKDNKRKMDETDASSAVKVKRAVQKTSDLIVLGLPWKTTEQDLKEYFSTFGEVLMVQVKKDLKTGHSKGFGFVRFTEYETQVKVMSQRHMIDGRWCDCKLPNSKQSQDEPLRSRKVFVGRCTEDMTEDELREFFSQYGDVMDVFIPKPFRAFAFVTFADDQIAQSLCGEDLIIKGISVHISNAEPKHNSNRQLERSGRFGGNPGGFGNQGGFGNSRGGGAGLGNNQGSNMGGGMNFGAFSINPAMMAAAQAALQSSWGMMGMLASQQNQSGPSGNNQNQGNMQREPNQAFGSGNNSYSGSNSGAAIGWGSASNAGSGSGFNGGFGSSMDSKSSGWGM
DCPS: m7GpppX diphosphatase (DCPS, Homo sapiens, UniProt Q96C86)
Sequence of UniProt Q96C86 (whole entry, looked up): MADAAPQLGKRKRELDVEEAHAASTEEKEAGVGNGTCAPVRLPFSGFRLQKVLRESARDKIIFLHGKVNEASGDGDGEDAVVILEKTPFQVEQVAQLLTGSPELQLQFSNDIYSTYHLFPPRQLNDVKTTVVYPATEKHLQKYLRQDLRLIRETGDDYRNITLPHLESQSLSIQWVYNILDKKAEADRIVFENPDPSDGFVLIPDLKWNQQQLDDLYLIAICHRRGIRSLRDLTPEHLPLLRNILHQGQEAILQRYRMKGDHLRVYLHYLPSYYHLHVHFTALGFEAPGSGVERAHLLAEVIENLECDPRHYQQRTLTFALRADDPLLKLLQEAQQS
CASP8: Caspase-8 (CASP8, Homo sapiens, UniProt Q14790)
Sequence of UniProt Q14790 (whole entry, looked up): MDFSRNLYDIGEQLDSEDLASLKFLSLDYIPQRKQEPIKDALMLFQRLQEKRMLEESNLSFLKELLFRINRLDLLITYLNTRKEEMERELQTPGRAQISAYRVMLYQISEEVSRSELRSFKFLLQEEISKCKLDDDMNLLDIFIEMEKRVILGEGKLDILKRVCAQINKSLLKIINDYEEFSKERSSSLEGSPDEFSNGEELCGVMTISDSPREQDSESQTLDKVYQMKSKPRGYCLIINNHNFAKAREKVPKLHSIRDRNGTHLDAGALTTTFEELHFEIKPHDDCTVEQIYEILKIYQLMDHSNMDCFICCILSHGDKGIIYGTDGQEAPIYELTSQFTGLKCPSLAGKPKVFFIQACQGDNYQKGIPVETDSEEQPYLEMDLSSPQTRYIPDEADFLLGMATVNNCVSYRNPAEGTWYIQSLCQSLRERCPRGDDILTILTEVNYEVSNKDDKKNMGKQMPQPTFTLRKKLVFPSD
MAPK1: Mitogen-activated protein kinase 1 (MAPK1, Homo sapiens, UniProt P28482)
Sequence of UniProt P28482 (whole entry, looked up): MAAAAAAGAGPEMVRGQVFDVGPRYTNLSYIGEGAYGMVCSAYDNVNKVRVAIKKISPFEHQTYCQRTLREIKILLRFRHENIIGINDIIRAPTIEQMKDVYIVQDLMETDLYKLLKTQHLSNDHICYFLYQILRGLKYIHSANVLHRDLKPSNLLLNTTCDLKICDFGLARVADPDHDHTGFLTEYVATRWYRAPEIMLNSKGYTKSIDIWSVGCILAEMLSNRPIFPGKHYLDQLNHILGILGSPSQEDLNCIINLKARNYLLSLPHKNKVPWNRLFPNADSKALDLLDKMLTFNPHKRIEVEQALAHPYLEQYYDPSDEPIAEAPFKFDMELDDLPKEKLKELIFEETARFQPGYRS
CASP10: Caspase-10 (CASP10, Homo sapiens, UniProt Q92851)
Sequence of UniProt Q92633 (whole entry, unmodified, looked up): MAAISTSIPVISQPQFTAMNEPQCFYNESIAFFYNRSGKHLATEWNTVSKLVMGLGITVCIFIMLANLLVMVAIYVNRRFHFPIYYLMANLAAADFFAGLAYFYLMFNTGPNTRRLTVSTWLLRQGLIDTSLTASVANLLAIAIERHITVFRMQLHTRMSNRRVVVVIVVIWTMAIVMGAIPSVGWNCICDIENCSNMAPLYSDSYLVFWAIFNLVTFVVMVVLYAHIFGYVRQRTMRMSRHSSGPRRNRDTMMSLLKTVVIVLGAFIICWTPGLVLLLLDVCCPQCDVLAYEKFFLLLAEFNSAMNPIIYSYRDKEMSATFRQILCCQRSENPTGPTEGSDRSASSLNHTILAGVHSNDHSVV
Sequence of UniProt P46089 (whole entry, looked up): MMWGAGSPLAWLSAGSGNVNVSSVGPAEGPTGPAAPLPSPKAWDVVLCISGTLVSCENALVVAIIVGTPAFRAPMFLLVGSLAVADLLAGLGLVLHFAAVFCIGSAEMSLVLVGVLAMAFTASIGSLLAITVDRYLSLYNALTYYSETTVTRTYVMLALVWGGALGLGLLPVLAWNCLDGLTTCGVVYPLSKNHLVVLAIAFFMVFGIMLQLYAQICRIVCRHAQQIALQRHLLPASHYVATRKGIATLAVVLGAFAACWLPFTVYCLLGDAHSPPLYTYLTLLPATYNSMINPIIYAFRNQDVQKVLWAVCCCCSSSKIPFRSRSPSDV
Sequence of UniProt Q92851 (whole entry, looked up): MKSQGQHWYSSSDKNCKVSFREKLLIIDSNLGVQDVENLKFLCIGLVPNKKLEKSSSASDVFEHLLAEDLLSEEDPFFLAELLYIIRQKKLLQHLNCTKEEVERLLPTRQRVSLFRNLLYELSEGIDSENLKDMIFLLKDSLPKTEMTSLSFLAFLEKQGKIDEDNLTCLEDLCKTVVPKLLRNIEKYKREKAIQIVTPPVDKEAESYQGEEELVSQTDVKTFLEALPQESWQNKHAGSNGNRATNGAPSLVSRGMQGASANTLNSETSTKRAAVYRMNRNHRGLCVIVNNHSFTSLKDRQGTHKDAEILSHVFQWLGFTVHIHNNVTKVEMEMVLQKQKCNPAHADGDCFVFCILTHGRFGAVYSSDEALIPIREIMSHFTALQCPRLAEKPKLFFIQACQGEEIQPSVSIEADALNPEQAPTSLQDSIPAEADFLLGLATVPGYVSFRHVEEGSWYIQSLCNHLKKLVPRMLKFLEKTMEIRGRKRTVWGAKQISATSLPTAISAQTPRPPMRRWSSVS
Sequence of UniProt P22061 (whole entry, looked up): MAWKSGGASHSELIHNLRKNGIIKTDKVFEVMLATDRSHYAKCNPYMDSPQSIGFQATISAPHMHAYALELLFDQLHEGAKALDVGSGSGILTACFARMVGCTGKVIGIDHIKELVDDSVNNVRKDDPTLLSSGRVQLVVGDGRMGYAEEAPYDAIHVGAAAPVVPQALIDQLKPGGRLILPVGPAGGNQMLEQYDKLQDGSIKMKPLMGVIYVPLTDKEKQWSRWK
Sequence of UniProt Q9NSD7 (whole entry, unmodified, looked up): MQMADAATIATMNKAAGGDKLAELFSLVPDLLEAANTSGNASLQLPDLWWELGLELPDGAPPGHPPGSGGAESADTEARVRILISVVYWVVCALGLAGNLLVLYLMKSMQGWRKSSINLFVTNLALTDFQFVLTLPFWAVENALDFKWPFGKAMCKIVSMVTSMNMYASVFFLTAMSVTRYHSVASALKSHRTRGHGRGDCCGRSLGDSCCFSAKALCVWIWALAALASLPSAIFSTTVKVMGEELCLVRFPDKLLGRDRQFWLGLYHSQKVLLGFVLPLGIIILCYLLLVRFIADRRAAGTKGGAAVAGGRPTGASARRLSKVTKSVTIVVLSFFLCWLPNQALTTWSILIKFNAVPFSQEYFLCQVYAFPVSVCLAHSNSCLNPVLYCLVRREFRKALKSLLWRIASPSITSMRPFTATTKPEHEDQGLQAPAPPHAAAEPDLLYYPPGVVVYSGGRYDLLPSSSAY
Sequence of UniProt P29597 (whole entry, looked up): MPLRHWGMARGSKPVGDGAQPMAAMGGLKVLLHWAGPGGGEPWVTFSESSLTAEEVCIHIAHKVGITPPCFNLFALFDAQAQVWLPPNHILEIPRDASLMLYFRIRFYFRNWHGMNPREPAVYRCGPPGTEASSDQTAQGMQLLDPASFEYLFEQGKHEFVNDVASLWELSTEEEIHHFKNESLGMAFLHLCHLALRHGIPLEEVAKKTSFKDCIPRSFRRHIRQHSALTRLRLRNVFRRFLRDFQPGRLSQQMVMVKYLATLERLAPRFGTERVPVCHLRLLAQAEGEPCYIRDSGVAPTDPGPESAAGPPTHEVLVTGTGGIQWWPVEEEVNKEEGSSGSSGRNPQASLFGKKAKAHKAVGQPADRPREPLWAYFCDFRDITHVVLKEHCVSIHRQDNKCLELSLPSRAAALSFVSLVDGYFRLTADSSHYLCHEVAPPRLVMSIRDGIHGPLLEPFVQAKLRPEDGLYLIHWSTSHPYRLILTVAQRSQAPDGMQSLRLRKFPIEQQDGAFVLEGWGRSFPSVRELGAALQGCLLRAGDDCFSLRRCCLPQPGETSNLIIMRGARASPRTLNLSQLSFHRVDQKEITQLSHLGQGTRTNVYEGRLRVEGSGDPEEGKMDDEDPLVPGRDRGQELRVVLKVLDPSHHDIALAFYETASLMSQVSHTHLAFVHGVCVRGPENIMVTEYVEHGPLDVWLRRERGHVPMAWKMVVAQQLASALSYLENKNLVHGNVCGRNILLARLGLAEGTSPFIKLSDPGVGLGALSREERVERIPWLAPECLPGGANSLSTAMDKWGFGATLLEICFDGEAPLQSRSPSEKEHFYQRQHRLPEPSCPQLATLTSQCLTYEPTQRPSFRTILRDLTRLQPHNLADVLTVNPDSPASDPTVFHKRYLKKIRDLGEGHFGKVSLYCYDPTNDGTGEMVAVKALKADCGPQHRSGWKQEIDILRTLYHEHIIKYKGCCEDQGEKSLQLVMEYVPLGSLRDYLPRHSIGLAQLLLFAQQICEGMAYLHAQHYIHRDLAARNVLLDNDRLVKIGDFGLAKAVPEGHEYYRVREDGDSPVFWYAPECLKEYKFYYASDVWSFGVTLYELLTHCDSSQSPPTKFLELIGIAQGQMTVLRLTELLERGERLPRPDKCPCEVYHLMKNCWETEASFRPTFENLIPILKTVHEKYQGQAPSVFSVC

O=C1c2sc(-c3ccc(N4CCC(F)C4)nc3F)nc2CCN1c1cccnc1 (stereo not shown) gave a specific binding of 3.65 nM and 3.64 nM (TARDBP aggregated; radioligand binding; human, FTLD-TDP type B extract; with: radioligand 37.19 nM).
C[n+]1cn([C@@H]2O[C@H](COP(=O)(O)OP(=O)([O-])OP(=O)(O)OP(=O)(O)OC[C@H]3O[C@@H](n4cnc5c(=O)[nH]c(N)nc54)[C@H](O)[C@@H]3O)[C@@H](O)[C@H]2O)c2nc(N)nc(O)c21 has a hydrolysis of 55.7 ± 0.8% (DCPS; substrate, HPLC; concentration not given, 30 min).
Cc1ccc(C(=O)Nc2ccc(CN3CCN(C)CC3)c(C(F)(F)F)c2)cc1C#Cc1cnc2cccnn12 has a Hill slope of 0.818 (Non-receptor tyrosine-protein kinase TYK2 (TYK2, Homo sapiens, UniProt P29597); target engagement, NanoBRET; human cells).
With Cc1cc(C)cc(COc2cc3c(cc2OCc2cc(C)cc(C)c2)C2CC(O)(Cc4cn(CCOCCOCCNC(=O)CCCCC5SCC6NC(=O)NC65)nn4)CC(C)N2CC3)c1 (stereo not shown) the SILAC ratio was 2.48 (Exportin-2 (Homo sapiens, UniProt P55060); biotinylated probe pull-down, refers to: CSE1L; 10 µM probe; reference: heavy over light).
N=C(N)NCCC[C@H](NC(=O)[C@@H]1CCCN1C(=O)[C@H](CCCNC(=N)N)NC(=O)[C@@H]1CCCN1C(=O)[C@H](CCCNC(=N)N)NC(=O)[C@@H]1CCCN1C(=O)[C@H](CCCNC(=N)N)NC(=O)[C@@H]1CCCN1C(=O)[C@H](CCCNC(=N)N)NC(=O)[C@@H]1CCCN1C(=O)[C@H](CCCNC(=N)N)NC(=O)[C@@H]1CCCN1C(=O)[C@H](CCCNC(=N)N)NC(=O)[C@@H]1CCCN1C(=O)[C@H](CCCNC(=N)N)NC(=O)[C@@H]1CCCN1C(=O)[C@H](CCCNC(=N)N)NC(=O)[C@@H]1CCCN1C(=O)[C@H](CCCNC(=N)N)NC(=O)[C@@H]1CCCN1C(=O)[C@H](CCCNC(=N)N)NC(=O)[C@@H]1CCCN1C(=O)[C@H](CCCNC(=N)N)NC(=O)[C@@H]1CCCN1C(=O)[C@H](CCCNC(=N)N)NC(=O)[C@@H]1CCCN1C(=O)[C@H](CCCNC(=N)N)NC(=O)[C@@H]1CCCN1C(=O)[C@H](CCCNC(=N)N)NC(=O)[C@@H]1CCCN1C(=O)[C@H](CCCNC(=N)N)NC(=O)[C@@H]1CCCN1C(=O)[C@H](CCCNC(=N)N)NC(=O)[C@@H]1CCCN1C(=O)[C@H](CCCNC(=N)N)NC(=O)[C@@H]1CCCN1C(=O)[C@H](CCCNC(=N)N)NC(=O)[C@@H]1CCCN1C(=O)[C@H](CCCNC(=N)N)NC(=O)[C@@H]1CCCN1C(=O)[C@H](CCCNC(=N)N)NC(=O)[C@@H]1CCCN1C(=O)[C@H](CCCNC(=N)N)NC(=O)[C@@H]1CCCN1C(=O)[C@H](CCCNC(=N)N)NC(=O)[C@@H]1CCCN1C(=O)[C@H](Cc1ccc(O)cc1)NC(=O)[C@H](CO)NC(=O)CN)C(=O)O — result for “maximum particle dimension”: 318 Å (Nucleophosmin (NPM1, Homo sapiens, UniProt P06748); SANS; 3 molar excess over NPM1, 25 °C).
CC(=O)N[C@@H](CC(=O)O)C(=O)N[C@@H](C)C(=O)N[C@@H](Cc1ccc(N)cc1)C(=O)N[C@@H](CC(=O)O)C(=O)COC(=O)c1c(C)cccc1C has a kinact/KI of 57000 M⁻¹ s⁻¹ (CASP8; enzyme activity, inhibitor).
CO[C@@H]1[C@H](O)[C@@H](COP(=O)(O)OP(=O)([O-])C(F)(F)P(=O)(O)OP(=O)(O)OC[C@H]2O[C@@H](n3cnc4c(=O)[nH]c(N)nc43)[C@H](O)[C@@H]2O)O[C@H]1n1c[n+](C)c2c(O)nc(N)nc21 has a hydrolysis of 15.7 ± 1.9% (DCPS; substrate, HPLC; concentration not given, 120 min).
The specific binding of O=C1c2sc(-c3ccc(N4CCC(CO)CC4)nc3F)nc2CCN1c1cccnc1 is reported as 1.89 a.u. and 4.15 a.u. and 2.56 a.u. and 3.07 a.u. and 3.24 a.u. and 4.78 a.u. (TARDBP aggregated; autoradiography; human, sections, FTLD-TDP, type B; 10 nM; higher = more binding).
N#CN1CC[C@H](C(=O)Nc2nc3c(s2)CN(C(=O)Cn2cc(COCCOCCOCCOCCNC(=O)CCCC[C@@H]4SC[C@@H]5NC(=O)N[C@@H]54)nn2)CC3)C1 has an iBAQ abundance of 1.12e+08 and 2.6e+08 and 4.99e+08 (Protein-L-isoaspartate(D-aspartate) O-methyltransferase (PCMT1, Homo sapiens, UniProt P22061); probe binding, affinity probe, neutravidin pull-down LC-MS/MS; HEK293T, cell lysate; 5 µM, 1 h, single replicate, unit not given; higher = more pulled down).
The remaining activity of COC(=O)[C@@]1(C)C=C(C(=O)Nc2cccc(C(=O)Nc3ccc(Nc4nccc(-c5cccnc5)n4)c(C)c3)c2)C(=O)CC1 is reported as 0.853 and 0.998 and 0.886 (MAPK1; enzyme activity, inhibitor; 0.1829 µM, unit not given; reference: vehicle).
For CC(=O)N[C@@H](CO)C(=O)N[C@@H](Cc1ccccc1)C(=O)N[C@@H](C)C(=O)N[C@@H](CC(=O)O)C(=O)COC(=O)c1c(C)cccc1C, the kobs/[I] was 115000 M⁻¹ s⁻¹ (CASP10; inhibitor; recombinant enzyme).
CC[C@H](C)[C@@H]1NC(=O)[C@H](Cc2ccccc2)NC(=O)[C@H](CCC(=O)O)NC(=O)[C@H](CCCNC(=N)N)NC(=O)CNC(=O)[C@@H](NC(=O)[C@H](CC(C)C)NC(=O)[C@H](CCCNC(=N)N)NC(=O)[C@@H](NC(=O)CNC(=O)[C@H](Cc2ccc(O)cc2)NC(=O)[C@@H]2CCCN2C(=O)[C@H](C)NC(=O)[C@H](C)NC(=O)[C@@H](N)CCCNC(=N)N)C(C)C)CSSC[C@@H]2NC(=O)[C@@H](NC(=O)[C@H](CO)NC(=O)[C@H](CO)NC(=O)[C@H](CO)NC(=O)[C@H](CC(C)C)NC(=O)CNC(=O)[C@H](C)NC(=O)[C@H](CC(C)C)NC(=O)[C@@H](NC(=O)[C@@H](N)CC(=O)O)C(C)C)CSSC[C@H](NC(=O)CNC(=O)[C@H](Cc3c[nH]c4ccccc34)NC(=O)[C@H](CCCCN)NC2=O)C(=O)N[C@@H](CO)C(=O)N[C@@H](CCCCN)C(=O)N[C@@H](CO)C(=O)N[C@@H](CCC(=O)O)C(=O)N[C@@H]([C@@H](C)CC)C(=O)N[C@@H](CO)C(=O)N[C@@H](CO)C(=O)N[C@@H](CC(C)C)C(=O)N[C@H](C(=O)O)CSSC[C@@H](C(=O)NCC(=O)NCC(=O)N[C@@H](CO)C(=O)N[C@@H](CCCNC(=N)N)C(=O)N[C@@H](Cc2c[nH]c3ccccc23)C(=O)O)NC(=O)[C@H]([C@@H](C)O)NC(=O)[C@H](Cc2ccccc2)NC(=O)[C@H]([C@@H](C)CC)NC(=O)[C@H](C(C)C)NC(=O)[C@H](C)NC(=O)[C@H](CCCNC(=N)N)NC1=O gave an Emax of 51.1 ± 3.78% (Relaxin-3 receptor 1 (RXFP3, Homo sapiens, UniProt Q9NSD7, M166A); HEK-293T; reference: wild type).
For C1=[N+]2CCCC[N+]3=Cc4ccc5[n]4[Au-]23[n]2c1ccc2-c1nc2ccccc2nc1-5.F[P-](F)(F)(F)(F)F, the Hill coefficient was 1.7 (DNA topoisomerase 1 (TOP1, Homo sapiens, UniProt P11387)).
With CC(=O)N[C@@H](CC(=O)O)C(=O)N[C@@H](CC(C)C)C(=O)N[C@H](C(=O)N[C@@H](C)C(=O)N[C@@H](CC(=O)O)C(=O)COC(=O)c1c(C)cccc1C)[C@@H](C)O the kobs/[I] was 144000 M⁻¹ s⁻¹ (CASP10; inhibitor; recombinant enzyme).
For C[Si]1(C[C@H](CN)CC(=O)O)CCCC1, the inhibition was 0% (Adenosine receptor A2b (ADORA2B, Homo sapiens, UniProt P29275); ligand displacement, radioligand; 70 µM).
CCCC[C@H](NC(C)=O)C(=O)N[C@@H](CCC(=O)O)C(=O)N[C@H](C(=O)N[C@@H](CC(=O)O)C(=O)COC(=O)c1c(C)cccc1C)[C@@H](C)O gave a kinact/KI of 164000 M⁻¹ s⁻¹ (CASP10; enzyme activity, inhibitor).
For Cc1cc2oc(=O)cc(Cn3ccnc3)c2cc1C, the agonist activity was 1.69 ± 0.3% (Alpha-1A adrenergic receptor (ADRA1A, Homo sapiens, UniProt P35348); intracellular Ca2+ mobilization, agonist; COS-7; 500 µM; reference: 3 µM ionomycin).
The fold change of CCN(CC)C(CO)c1cccc2c(C)c(C)oc12 (stereo not shown) is reported as 1 and 0.993 and 1.02 and 0.992 and 0.981 (Lysophosphatidic acid receptor 1 (LPAR1, Homo sapiens, UniProt Q92633, W271F); G-protein dissociation, agonist, NanoBiT; HEK-293T; 100 pM, W271F mutant; reference: baseline luminescence).
For CC(=O)N[C@H](C(=O)N[C@@H](CCCC(=O)O)C(=O)N[C@@H](CCC1CCCCC1)C(=O)N[C@@H](CC(=O)O)C(=O)COC(=O)c1c(C)cccc1C)C(C)(C)C, the kinact/KI was 484000 M⁻¹ s⁻¹ (CASP10; enzyme activity, inhibitor).
The Tm of Cc1cn(CC(=O)N(CCNC(=O)CN(CCNC(=O)CN(CCNC(=O)CN(CCNC(=O)CN(CCNC(=O)CN(CCNC(=O)CN(CCNC(=O)CN(CCN)C(=O)Cn2cnc3c(=O)[nH]c(N)nc32)C(=O)Cn2cnc3c(N)ncnc32)C(=O)Cn2cc(C)c(=O)[nH]c2=O)C(=O)Cn2cnc3c(=O)[nH]c(N)nc32)C(=O)Cn2cc(C)c(=O)[nH]c2=O)C(=O)Cn2cnc3c(=O)[nH]c(N)nc32)C(=O)Cn2cnc3c(N)ncnc32)CC(=O)NCCN(CC(=O)NCCOCCOCC(N)=O)C(=O)Cn2cnc3c(N)ncnc32)c(=O)[nH]c1=O is reported as 42.2 ± 0.2 °C (complementary DNA; duplex formation, UV melting curve fit; PBS; 1 µM, fit parameter α 0.5).
CCCCCCCO[C@H]1CO[C@H](CO)[C@@H](O)[C@H](O)[C@@H]1O gave a -TΔS of 5.54 kcal/mol (Type 1 fimbrin D-mannose specific adhesin, lectin domain (fimH, Escherichia coli K-12, UniProt P08191); binding, isothermal titration calorimetry; 37 °C, global fit of two titrations).
CCCC[C@H](NC(=O)[C@H](CC(=O)O)NC(C)=O)C(=O)N1[C@H](C(=O)N[C@@H](CC(=O)O)C(=O)COC(=O)c2c(C)cccc2C)C[C@@H]2CCCC[C@@H]21 gave a kinact/KI of 90000 M⁻¹ s⁻¹ (CASP8; enzyme activity, inhibitor).
O=C(CCCCCCS)Nc1ccccc1 has a TΔS° of 7.1 kcal/mol (Histone deacetylase 8 (HDAC8, Homo sapiens, UniProt Q9BY41); ITC; Tris-HCl buffer; 283 K).
CCCCCCCCCCCCC/C=C/C=O: “isoTOP-ABPP competition ratio” 1 (F-box only protein 30 (FBXO30, Homo sapiens, UniProt Q8TB52); competitive isoTOP-ABPP; Ramos soluble proteome; 100 µM, 60 min, with: iodoacetamide probe; reference: DMSO over compound-treated, higher = stronger cysteine blockade).
C#CCOC(=O)[C@@]1(C)C=C(C(=O)OC(C)(C)C)C(=O)CC1: “normalized kinase activity” 0.7 (MAPK1; enzyme activity, D-SENSOR; 133.3 µM, mean of replicates).
O=C(Cc1ccc(OCc2ccccc2)cc1)NC1(C(=O)O)CCN(C(=O)c2ccc(-c3cccc(Cl)c3)cc2)CC1 — result for “activity vs control”: 111% (Phosphatidylinositol 5-phosphate 4-kinase type-2 alpha (PIP4K2A, Homo sapiens, UniProt P48426); enzyme activity, inhibitor; 10 µM).
For CC(C)Oc1cc(Cl)ccc1CNc1cc(-c2ccccc2)nc2ncnn12, the cAMP luminescence was 2280 a.u. and 13000 a.u. and 3540 a.u. and 4850 a.u. and 2010 a.u. and 3340 a.u. (G-protein coupled receptor 3 (GPR3, Homo sapiens, UniProt P46089); cAMP reporter; human cells; 3 µM; higher is more cAMP).
The DHEA metabolism of O=c1c(-c2ccccc2C(F)(F)F)coc2cc(O)ccc12 is reported as 0 (3 beta-hydroxysteroid dehydrogenase/Delta 5-->4-isomerase type 1 (HSD3B1, Homo sapiens, UniProt P14060); [3H]-DHEA conversion; LNCaP; 0.1 µM, normalized to protein, unit not given; reference: vehicle).

A few entries again:
With CC(=O)N[C@@H](CC(=O)O)C(=O)N[C@@H](CC(C)C)C(=O)N[C@H](C(=O)N[C@@H](C)C(=O)N[C@@H](CC(=O)O)C(=O)COC(=O)c1c(C)cccc1C)[C@@H](C)O the kobs/[I] was 144000 M⁻¹ s⁻¹ (CASP10; inhibitor; recombinant enzyme).
For C[Si]1(C[C@H](CN)CC(=O)O)CCCC1, the inhibition was 0% (Adenosine receptor A2b (ADORA2B, Homo sapiens, UniProt P29275); ligand displacement, radioligand; 70 µM).
The fold change of CCN(CC)C(CO)c1cccc2c(C)c(C)oc12 (stereo not shown) is reported as 1 and 0.993 and 1.02 and 0.992 and 0.981 (Lysophosphatidic acid receptor 1 (LPAR1, Homo sapiens, UniProt Q92633, W271F); G-protein dissociation, agonist, NanoBiT; HEK-293T; 100 pM, W271F mutant; reference: baseline luminescence).
The remaining activity of COC(=O)[C@@]1(C)C=C(C(=O)Nc2cccc(C(=O)Nc3ccc(Nc4nccc(-c5cccnc5)n4)c(C)c3)c2)C(=O)CC1 is reported as 0.853 and 0.998 and 0.886 (MAPK1; enzyme activity, inhibitor; 0.1829 µM, unit not given; reference: vehicle).
